Assay results of several laboratories.
Protocols differ between the studies behind these lines. ± marks the error that the study gave.
Target: Cytochrome P450 2C9 (CYP2C9, Homo sapiens, UniProt P11712)
UniProt P11712, sequence (whole entry, looked up): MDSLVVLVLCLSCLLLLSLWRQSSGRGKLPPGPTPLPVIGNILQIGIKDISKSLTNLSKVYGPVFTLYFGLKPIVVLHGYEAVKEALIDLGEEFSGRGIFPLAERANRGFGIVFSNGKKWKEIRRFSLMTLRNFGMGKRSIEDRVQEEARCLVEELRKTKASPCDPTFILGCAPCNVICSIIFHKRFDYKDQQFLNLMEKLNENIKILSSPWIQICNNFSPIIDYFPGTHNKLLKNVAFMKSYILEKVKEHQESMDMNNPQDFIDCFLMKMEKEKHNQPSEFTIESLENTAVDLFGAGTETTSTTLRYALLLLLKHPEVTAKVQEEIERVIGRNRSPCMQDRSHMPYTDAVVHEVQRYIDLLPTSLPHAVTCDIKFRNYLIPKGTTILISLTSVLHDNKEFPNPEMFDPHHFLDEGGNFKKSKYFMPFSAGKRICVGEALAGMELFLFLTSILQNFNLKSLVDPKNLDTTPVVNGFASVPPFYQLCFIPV

With `CC(C)(O)c1ccccc1CC[C@H](c1cccc(/C=C/c2ccc3ccc(Cl)cc3n2)c1)S(=O)(=O)CC1(CC(=O)O)CC1` the IC50 was 2.15 µM (inhibitor; human liver microsomes; pH 7.4, added: diclofenac).
`COc1ccc2nc(C)cc(OCC(=O)Nc3cc(C)cc(C)c3)c2c1` gave an IC50 of 2.8 µM (inhibitor).
`CC(C)(O)c1ccccc1CC[C@H](c1cccc(/C=C/c2ccc3ccc(Cl)cc3n2)c1)[S+]([O-])CC1(CC(=O)O)CC1` (stereo partly shown) has an IC50 of 3.61 µM (inhibitor; human liver microsomes; pH 7.4, added: diclofenac).
The IC50 of `CCCCCc1cc(O)c2c(c1)OC(C)(C)C1CCC(C(=O)OC3OC(C(=O)O)C(O)C(O)C3O)=CC21` (stereo not shown) is reported as 15 ± 2.7 µM (inhibitor; 30 min preincubation, added: NADPH).
For `COc1ccc(CCNc2cc(-c3ccccc3)nc3ncnn23)cc1`, the IC50 was 1.6 µM.
`CCn1ccc(-c2cc(-c3cnn(C)c3)cc([C@@H](C)NC(=O)c3cc(OCCN(C)C)ccc3C)c2)n1` has an IC50 of over 50 µM (enzyme activity, inhibitor; pooled human liver microsomes; 10 (unit not given)).
`Cc1cccc(-c2nc(Nc3ccncn3)c3c(C)csc3n2)n1` has an IC50 of 17 µM (inhibitor).
With `COC(=O)c1ccc2c(c1)NC(=O)/C2=C(\Nc1ccc2c(c1)CCN2C(=O)CN1CCOCC1)c1ccccc1` the IC50 was 35.4 µM (10 min, added: diclofenac 5 µM).
The IC50 of `COc1ccc(F)cc1S(=O)(=O)Nc1cnc2c(c1)C(=O)NCCO2` is reported as over 100 µM (enzyme activity, inhibitor; human, liver microsomes; with preincubation).
The IC50 of `c1cc2c(s1)CCOC21CCN(Cc2ccc3c(c2)OCCO3)CC1` is reported as 48 µM (inhibitor).
With `C(#Cc1cncc(OC[C@@H]2CCN2)c1)c1ccccc1` the IC50 was 5.11 µM (enzyme activity, inhibitor; MFC).
For `CCC1CN2CCc3c([nH]c4cccc(OC)c34)[C@@H]2CC1/C(=C\OC)C(=O)OC` (stereo partly shown), the IC50 was 9.7 ± 4.8 µM (enzyme activity, inhibitor; 30 min, pH 7.4).
The IC50 of `c1ccc(C2(CCNC3CCC4(SCCS4)c4ccccc43)CCOC3(CCCC3)C2)nc1` (stereo not shown) is reported as 34 µM (enzyme activity, inhibitor; human, liver microsomes).
For `Cc1ccc2nc(C)c(C(=O)NCc3cccs3)n2c1`, the IC50 was 7.6 µM (inhibitor).
For `C[C@H](NCc1ccc(-c2ccc(C(F)(F)F)cc2)cc1)C(N)=O`, the IC50 was over 10 µM (enzyme activity, inhibitor, luciferase; pH 7.4).
For `Cc1ccc(N2CC3CCC(C2)N3C)cc1C(=O)N[C@H](C)c1cc(-c2cnn(C)c2)nc2ccccc12`, the IC50 was over 50 µM (enzyme activity).

Some of these lines once more:
`CCn1ccc(-c2cc(-c3cnn(C)c3)cc([C@@H](C)NC(=O)c3cc(OCCN(C)C)ccc3C)c2)n1` has an IC50 of over 50 µM (enzyme activity, inhibitor; pooled human liver microsomes; 10 (unit not given)).
For `C[C@H](NCc1ccc(-c2ccc(C(F)(F)F)cc2)cc1)C(N)=O`, the IC50 was over 10 µM (enzyme activity, inhibitor, luciferase; pH 7.4).
